Measured values collected from several papers.
Parts stem from different laboratories: compare values within a part only.
Chain of UniProt Q04771 (whole entry, looked up): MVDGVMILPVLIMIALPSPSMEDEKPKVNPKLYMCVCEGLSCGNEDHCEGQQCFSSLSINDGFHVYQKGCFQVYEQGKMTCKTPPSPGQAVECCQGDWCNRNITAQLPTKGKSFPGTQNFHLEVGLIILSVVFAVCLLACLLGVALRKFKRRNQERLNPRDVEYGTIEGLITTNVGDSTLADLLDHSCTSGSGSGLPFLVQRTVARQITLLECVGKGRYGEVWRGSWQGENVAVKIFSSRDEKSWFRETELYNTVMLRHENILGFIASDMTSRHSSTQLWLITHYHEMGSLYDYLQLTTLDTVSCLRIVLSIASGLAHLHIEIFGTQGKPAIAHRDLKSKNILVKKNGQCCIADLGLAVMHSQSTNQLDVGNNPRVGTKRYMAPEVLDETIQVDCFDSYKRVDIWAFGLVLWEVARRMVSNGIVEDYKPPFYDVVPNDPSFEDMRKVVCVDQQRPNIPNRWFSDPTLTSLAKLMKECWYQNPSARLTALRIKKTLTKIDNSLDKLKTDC
Chain of UniProt Q13464 (whole entry, looked up): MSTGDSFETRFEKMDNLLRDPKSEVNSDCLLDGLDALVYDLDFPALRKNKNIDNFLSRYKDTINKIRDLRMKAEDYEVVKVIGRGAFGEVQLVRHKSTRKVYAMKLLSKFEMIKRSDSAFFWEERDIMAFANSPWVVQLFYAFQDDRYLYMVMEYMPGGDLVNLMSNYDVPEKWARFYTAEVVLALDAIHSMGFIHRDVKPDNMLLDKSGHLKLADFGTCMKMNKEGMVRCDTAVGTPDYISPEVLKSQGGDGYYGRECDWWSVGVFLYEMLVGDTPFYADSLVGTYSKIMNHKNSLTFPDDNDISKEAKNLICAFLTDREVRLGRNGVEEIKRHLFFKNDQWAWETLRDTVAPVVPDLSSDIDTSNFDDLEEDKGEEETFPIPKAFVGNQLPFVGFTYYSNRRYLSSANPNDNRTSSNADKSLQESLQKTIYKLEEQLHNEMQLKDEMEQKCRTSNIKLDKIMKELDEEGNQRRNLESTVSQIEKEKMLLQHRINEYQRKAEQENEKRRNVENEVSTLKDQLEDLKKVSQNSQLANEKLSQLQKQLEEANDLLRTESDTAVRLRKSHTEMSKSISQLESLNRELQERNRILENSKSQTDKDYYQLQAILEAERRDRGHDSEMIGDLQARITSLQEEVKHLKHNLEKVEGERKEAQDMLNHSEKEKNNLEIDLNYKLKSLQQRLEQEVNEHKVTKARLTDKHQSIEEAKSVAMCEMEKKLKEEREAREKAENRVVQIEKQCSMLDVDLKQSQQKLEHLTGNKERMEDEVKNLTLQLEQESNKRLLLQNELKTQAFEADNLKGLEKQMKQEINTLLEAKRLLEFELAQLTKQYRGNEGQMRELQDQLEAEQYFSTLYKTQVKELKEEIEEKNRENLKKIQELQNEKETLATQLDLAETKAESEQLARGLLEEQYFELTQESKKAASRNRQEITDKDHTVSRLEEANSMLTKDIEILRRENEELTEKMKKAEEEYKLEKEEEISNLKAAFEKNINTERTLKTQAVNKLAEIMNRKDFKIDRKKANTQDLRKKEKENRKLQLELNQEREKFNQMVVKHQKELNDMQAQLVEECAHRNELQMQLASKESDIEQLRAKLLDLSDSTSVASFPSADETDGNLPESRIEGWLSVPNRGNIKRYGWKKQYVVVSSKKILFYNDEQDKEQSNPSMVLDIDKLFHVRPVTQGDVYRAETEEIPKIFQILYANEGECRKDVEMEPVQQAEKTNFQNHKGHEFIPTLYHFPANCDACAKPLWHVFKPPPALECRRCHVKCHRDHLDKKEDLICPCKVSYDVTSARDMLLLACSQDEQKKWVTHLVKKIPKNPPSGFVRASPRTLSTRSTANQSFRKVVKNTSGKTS
Chain of UniProt Q8NEB9 (whole entry, looked up): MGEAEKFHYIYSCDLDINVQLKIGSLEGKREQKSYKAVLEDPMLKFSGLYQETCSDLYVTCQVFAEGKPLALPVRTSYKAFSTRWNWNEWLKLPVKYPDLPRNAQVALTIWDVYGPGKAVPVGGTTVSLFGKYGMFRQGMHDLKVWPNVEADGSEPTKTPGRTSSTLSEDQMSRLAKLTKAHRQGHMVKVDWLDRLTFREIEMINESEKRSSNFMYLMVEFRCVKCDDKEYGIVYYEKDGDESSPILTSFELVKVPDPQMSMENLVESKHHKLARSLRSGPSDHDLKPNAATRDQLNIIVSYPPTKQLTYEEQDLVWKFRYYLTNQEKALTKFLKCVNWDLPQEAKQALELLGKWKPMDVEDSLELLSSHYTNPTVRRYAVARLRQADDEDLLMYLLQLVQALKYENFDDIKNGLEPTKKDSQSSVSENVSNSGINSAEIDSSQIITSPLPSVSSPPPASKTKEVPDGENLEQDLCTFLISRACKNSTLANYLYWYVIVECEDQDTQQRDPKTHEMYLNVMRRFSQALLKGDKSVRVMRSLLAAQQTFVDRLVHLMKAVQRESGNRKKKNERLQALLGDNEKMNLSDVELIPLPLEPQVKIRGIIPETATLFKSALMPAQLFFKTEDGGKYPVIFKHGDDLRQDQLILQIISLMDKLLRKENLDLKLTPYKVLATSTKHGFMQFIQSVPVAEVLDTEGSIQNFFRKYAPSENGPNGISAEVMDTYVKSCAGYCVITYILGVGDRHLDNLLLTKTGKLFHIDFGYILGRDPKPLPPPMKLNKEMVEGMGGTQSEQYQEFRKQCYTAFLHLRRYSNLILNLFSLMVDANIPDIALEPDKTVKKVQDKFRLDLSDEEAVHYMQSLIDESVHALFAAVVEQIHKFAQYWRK
Chain of UniProt Q7L7X3 (whole entry, looked up): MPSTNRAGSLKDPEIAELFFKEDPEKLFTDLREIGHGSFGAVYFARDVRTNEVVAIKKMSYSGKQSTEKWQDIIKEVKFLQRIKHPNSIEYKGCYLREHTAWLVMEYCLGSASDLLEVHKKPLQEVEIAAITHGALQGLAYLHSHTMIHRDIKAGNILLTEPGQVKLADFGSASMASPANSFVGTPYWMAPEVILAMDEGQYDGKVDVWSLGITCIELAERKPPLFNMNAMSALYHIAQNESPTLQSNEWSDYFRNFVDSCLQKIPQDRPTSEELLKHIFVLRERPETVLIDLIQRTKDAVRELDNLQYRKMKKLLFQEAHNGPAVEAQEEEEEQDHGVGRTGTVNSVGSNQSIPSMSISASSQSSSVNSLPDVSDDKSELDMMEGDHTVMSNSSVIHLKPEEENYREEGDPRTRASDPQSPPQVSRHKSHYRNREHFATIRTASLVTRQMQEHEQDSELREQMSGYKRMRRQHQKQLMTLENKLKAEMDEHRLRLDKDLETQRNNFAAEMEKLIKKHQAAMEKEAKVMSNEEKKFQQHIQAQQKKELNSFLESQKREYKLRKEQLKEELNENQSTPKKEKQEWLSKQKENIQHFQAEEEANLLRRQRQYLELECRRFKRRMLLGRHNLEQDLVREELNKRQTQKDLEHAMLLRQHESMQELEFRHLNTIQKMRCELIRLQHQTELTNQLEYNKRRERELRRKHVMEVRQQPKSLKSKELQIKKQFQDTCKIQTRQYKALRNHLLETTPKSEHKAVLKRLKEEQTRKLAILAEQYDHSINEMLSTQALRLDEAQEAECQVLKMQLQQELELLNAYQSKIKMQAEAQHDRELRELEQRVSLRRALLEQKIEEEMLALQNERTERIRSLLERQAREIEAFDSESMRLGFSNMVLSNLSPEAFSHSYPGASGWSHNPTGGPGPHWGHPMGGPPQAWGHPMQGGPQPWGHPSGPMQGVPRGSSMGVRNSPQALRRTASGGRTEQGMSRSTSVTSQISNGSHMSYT
Chain of UniProt P78356 (whole entry, looked up): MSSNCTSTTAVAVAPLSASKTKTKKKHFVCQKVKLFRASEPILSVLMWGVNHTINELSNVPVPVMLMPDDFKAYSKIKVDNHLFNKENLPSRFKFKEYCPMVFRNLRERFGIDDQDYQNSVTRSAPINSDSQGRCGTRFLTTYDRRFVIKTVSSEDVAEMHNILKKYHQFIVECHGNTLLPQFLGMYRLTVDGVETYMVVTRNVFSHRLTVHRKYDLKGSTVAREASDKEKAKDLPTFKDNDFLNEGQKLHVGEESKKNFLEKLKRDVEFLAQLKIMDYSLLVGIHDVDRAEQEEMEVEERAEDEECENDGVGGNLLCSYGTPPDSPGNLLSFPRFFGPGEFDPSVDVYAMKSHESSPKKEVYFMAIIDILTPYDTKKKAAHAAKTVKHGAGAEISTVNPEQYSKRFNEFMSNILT
Chain of UniProt Q9C098 (whole entry, looked up): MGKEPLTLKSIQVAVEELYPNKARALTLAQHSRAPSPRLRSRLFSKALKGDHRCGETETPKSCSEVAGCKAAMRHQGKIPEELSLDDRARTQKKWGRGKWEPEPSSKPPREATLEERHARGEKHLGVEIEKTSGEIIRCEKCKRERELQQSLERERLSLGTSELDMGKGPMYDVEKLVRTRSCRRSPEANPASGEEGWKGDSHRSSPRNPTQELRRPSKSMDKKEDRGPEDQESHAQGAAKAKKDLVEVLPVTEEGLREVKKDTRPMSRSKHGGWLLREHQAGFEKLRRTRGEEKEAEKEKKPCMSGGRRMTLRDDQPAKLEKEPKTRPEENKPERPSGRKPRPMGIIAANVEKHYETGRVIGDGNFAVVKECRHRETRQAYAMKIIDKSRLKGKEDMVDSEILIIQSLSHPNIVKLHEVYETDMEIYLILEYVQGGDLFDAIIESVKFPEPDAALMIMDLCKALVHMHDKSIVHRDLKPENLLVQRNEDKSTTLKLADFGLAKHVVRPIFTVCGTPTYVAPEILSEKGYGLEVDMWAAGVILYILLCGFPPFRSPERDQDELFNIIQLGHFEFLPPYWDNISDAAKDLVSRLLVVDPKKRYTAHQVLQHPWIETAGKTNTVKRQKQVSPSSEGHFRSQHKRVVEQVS

Series 1 — read-out: cell-free assay; technique: competition with immobilised ligand; concentration: 0.1 µM
SMILES: CS(=O)(=O)N1CCCC(NC(=O)[C@H](CCC2CCCCC2)NC(=O)c2ccc(CNc3ncnc4c3nnn4-c3ccccc3)cc2)C1 (stereo partly drawn)
target	remaining binding [%]
HIPK2 (Homo sapiens, UniProt Q9H2X6)	100
PIK3C2G (Homo sapiens, UniProt O75747)	81
Tyrosine-protein kinase ABL1, phosphorylated (ABL1, Homo sapiens, UniProt P00519, M351T)	100
FGFR4 (Homo sapiens, UniProt P22455)	100
MST1R (Homo sapiens, UniProt Q04912)	97
CSNK2A2 (Homo sapiens, UniProt P19784)	85
ACVR1 (Homo sapiens, UniProt Q04771)	88
PIK3C3 (Homo sapiens, UniProt Q8NEB9)	100
BRSK2 (Homo sapiens, UniProt Q8IWQ3)	79
DAPK3 (Homo sapiens, UniProt O43293)	88
EPHA6 (Homo sapiens, UniProt Q9UF33)	100
ROCK1 (Homo sapiens, UniProt Q13464)	93
CDK17 (Homo sapiens, UniProt Q00537)	86
TAOK1 (Homo sapiens, UniProt Q7L7X3)	100
SGK3 (Homo sapiens, UniProt Q96BR1)	83
MAP3K19 (Homo sapiens, UniProt Q56UN5)	92
DCLK3 (Homo sapiens, UniProt Q9C098)	87
CDK2 (Homo sapiens, UniProt P24941)	100
PIP4K2B (Homo sapiens, UniProt P78356)	100

Series 2 — technique: RNAcompete; form: RNA; medium: in vitro; concentration: 20 nM; notes: 7-mer, probes averaged, single round; relative to: mean of 7-mers; direction: higher = stronger binding
Target: PABPC1L2, full length, GST fusion (mouse, UniProt A0ABA7IW68)
Target sequence (chain): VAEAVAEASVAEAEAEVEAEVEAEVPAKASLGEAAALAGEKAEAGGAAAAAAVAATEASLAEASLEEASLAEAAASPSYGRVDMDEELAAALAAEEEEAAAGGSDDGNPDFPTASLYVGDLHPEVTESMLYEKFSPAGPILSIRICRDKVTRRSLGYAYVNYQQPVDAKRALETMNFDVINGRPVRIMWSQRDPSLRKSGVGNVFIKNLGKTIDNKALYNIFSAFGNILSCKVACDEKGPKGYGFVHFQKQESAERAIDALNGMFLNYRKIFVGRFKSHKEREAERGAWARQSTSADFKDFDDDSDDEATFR
Sequence	7-mer Z-score
GCUUAUA	-0.229
GUUGGUC	-0.264
CAAUAGU	-0.195
AUGCAGU	-0.151
GAUGUUU	-0.418
CUUAUGC	-0.304
CCUCCAU	-0.238
CUGUAAA	0.974

Series 3 — cell line: HaCaT; concentration: 100 µM; time: 36 h
Structure (SMILES)	viability
CO/N=C(\C(=O)N[C@@H]1C(=O)N2C(C(=O)O)=C(CSc3nc(=O)c(=O)[nH]n3C)CS[C@H]12)c1csc(N)n1	110%
COc1cc2c(Nc3ccc(Br)cc3F)ncnc2cc1OCC1CCN(C)CC1	12.1%
COc1ccc([C@@H]2OC[C@H]3[C@@H]2CO[C@@H]3c2ccc(O[C@@H]3O[C@H](CO)[C@@H](O)[C@H](O)[C@H]3O)c(OC)c2)cc1OC	87.8%

Series 4 — technique: RNA Bind-n-Seq; form: RNA; medium: in vitro; concentration: 365 nM; relative to: no-protein control; direction: higher = stronger binding
Target: RNA binding protein fox-1 homolog 2, RRM domain, GST-SBP tag (RBFOX2, Homo sapiens, UniProt O43251-10, residues 100-194)
Notes: natural RNA segment, single round, ends assumed
Construct (chain): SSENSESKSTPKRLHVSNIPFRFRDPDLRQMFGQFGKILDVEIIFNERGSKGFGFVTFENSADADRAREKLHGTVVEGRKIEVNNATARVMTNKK
Sequence	RBNS enrichment (R)
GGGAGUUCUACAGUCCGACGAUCAACUCCCUUGUCUGUUUCUAAACUCGUGUUACCAGUCCAGUGUACCUCCCUCCCUGCAGGCUUUUGUCUGGCAGGAGACAGCAACACCUCCUAGGACUCUGUACUUGAUUUGGAAUUCUCGGGUGCCAA	0.662
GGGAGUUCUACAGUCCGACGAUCGAAAAGGGAUGAAAUUGAAGAAACUGAAACUUCACGGAAUUUGGAAGAGUGGUUUUAACAUGGGACAGAAAAUAGUCUUUUCCUAUUCUCUCAAUCCAUUUUUAGGUAGAUGGAAUUCUCGGGUGCCAA	0.625
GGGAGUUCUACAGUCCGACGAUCGAGGAGUGAAAACCAUGCAAGUAGAUGCUUACUGCCUUGACAUGGGAAUUACGGUUAUGACAGAACGAAAGGUGACUGACAGGUGCUGCCCCUCCGAGAAGGUGGCUGCGUGGAAUUCUCGGGUGCCAA	2.33
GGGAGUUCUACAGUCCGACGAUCUAUCUAGAUACUGCAGUCAGGUUUGGAAGCUGCCGUACACUCACUGUCUAAAACCCUUGAGGGGCUGUAUUAAUUUGUAUCGCCCCAUGGCUGUGAAAUGCCUUUUUUUUUGGAAUUCUCGGGUGCCAA	0.325
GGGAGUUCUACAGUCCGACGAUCAGAAGUCUGGGAAGCCCCUUUCGCUCUGCCUCCUGCAUCCUCCCAGAUAACAAAACACAUUAACACAUUCUUACUGGAUAAUCCAAUUUGCCAAAACAUUUGGGCAUUGUUGGAAUUCUCGGGUGCCAA	0.694
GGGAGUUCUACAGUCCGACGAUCAAAGCUUAGUAAUGGAACUUGGCUGUGGCCCAGAGCUUUCUCCUUAUAGAGAAUUUGAUCUGCUCCGUGUGCGCUCUCUGCUAUUAGCCGGAGCUAUUUAUGGCAAACACUGGAAUUCUCGGGUGCCAA	0.368
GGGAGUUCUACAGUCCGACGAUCAAUAGGAAAUGGGAUAAAAUAUCAAGAGACAAUGAAAACACUGCCUUGACAUGAGGACCAGCAAGUUUAUUCUUUUCAUUUUCAGUGAUGUUGGGAAUGGACUGGGUUUUUGGAAUUCUCGGGUGCCAA	0.524
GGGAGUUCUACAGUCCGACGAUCUAUUCCCUUAGGACAGAAAAUUGCAUGUGAGGUGGGAUAAUCGAGUUUCAGUGACCCACGUCAGUUACACAUUAAAGCCAGACCCCAUGAUAAAAUUCCACAAAAUGGAAUGGAAUUCUCGGGUGCCAA	3.55

Mixed results
Compound	host	medium	concentration	time	quantity	result
CC(C)(C)c1ccc(OCCOCCOc2ccc(C(C)(C)C)cc2O)c(O)c1	human	microsomes or S9	2 µM	0.5 h	remaining compound	21.2%

For quick reference, copied from above (series 2):
Sequence	7-mer Z-score
GCUUAUA	-0.229
GUUGGUC	-0.264
CAAUAGU	-0.195
AUGCAGU	-0.151
GAUGUUU	-0.418
CUUAUGC	-0.304
